Experimental data pooled from the literature.
A part holds a random share of what one study measured. Values joined by “and” are separate records of one study, mostly repeats; a detail may differ.

Sample 1 — Structure (SMILES): COc1cc2ncnc(Nc3cccc(Cl)c3)c2cc1OC; effect on: enzyme activity; mode: inhibitor; concentration: 0.5 µM; baseline: control
target | remaining activity [%]
Cyclin-dependent kinase 9, with cyclin K (CDK9, Homo sapiens, UniProt P50750) | 106
Dual specificity mitogen-activated protein kinase kinase 1 (MAP2K1, Homo sapiens, UniProt Q02750) | 98.5
MAP/microtubule affinity-regulating kinase 4 (MARK4, Homo sapiens, UniProt Q96L34) | 98.5
Tyrosine-protein kinase TXK (TXK, Homo sapiens, UniProt P42681) | 75
Misshapen-like kinase 1 (MINK1, Homo sapiens, UniProt Q8N4C8) | 83.1
Serine/threonine-protein kinase PLK3 (PLK3, Homo sapiens, UniProt Q9H4B4) | 92.3
Calcium/calmodulin-dependent protein kinase type 1B (PNCK, Homo sapiens, UniProt Q6P2M8) | 89.6
Dual specificity protein kinase CLK4 (CLK4, Homo sapiens, UniProt Q9HAZ1) | 98.2
Serine/threonine-protein kinase MRCK beta (CDC42BPB, Homo sapiens, UniProt Q9Y5S2) | 84.9
Vascular endothelial growth factor receptor 2 (KDR, Homo sapiens, UniProt P35968) | 74.7
Mitogen-activated protein kinase 1 (MAPK1, Homo sapiens, UniProt P28482) | 91.7
Rho-associated protein kinase 1 (ROCK1, Homo sapiens, UniProt Q13464) | 95.9
Hepatocyte growth factor receptor (MET, Homo sapiens, UniProt P08581) | 75.5

Sample 2 — effect on: enzyme activity; mode: inhibitor; concentration: 1 µM
SMILES: CO[C@@H]1[C@H](N(C)C(=O)c2ccccc2)C[C@H]2O[C@]1(C)n1c3ccccc3c3c4c(c5c6ccccc6n2c5c31)C(=O)NC4
target | inhibition
Receptor-interacting serine/threonine-protein kinase 4 (RIPK4, Homo sapiens, UniProt P57078) | 11%
Serine/threonine-protein kinase 17A (STK17A, Homo sapiens, UniProt Q9UEE5) | 73%
Phosphorylase b kinase gamma catalytic chain, liver/testis isoform (PHKG2, Homo sapiens, UniProt P15735) | 41%
Serine/threonine-protein kinase PAK 4 (PAK4, Homo sapiens, UniProt O96013) | 3%
Mast/stem cell growth factor receptor Kit, autoinhibited (KIT, Homo sapiens, UniProt P10721) | 34%
Receptor tyrosine-protein kinase erbB-3 (ERBB3, Homo sapiens, UniProt P21860) | 11%
Serine/threonine-protein kinase TNNI3K (TNNI3K, Homo sapiens, UniProt Q59H18) | 4%
cGMP-dependent protein kinase 1 (PRKG1, Homo sapiens, UniProt Q13976) | 63%
Mitogen-activated protein kinase 12 (MAPK12, Homo sapiens, UniProt P53778) | 45%
SRSF protein kinase 2 (SRPK2, Homo sapiens, UniProt P78362) | 1%
Dual specificity mitogen-activated protein kinase kinase 3 (MAP2K3, Homo sapiens, UniProt P46734) | 60%
Fibroblast growth factor receptor 3 (FGFR3, Homo sapiens, UniProt P22607, G697C) | 7%
Protein kinase C theta type (PRKCQ, Homo sapiens, UniProt Q04759) | 73%

Sample 3 — effect on: enzyme activity; mode: inhibitor; concentration: 10 µM
Target: Calcium/calmodulin-dependent protein kinase type II subunit alpha (CAMK2A, Homo sapiens, UniProt Q9UQM7)
SMILES | inhibition
C=CCSC | 12%
COc1c2ccoc2c(OC[C@H]2OC2(C)C)c2oc(=O)ccc12 | -7%
C/C=C/C=C/C(=O)O | -0.07% and -0.08%
CC(C)C(=O)OCC(=O)[C@@]12O[C@H](C3CCCCC3)O[C@@H]1C[C@H]1[C@@H]3CCC4=CC(=O)C=C[C@]4(C)[C@H]3[C@@H](O)C[C@@]12C | 3%
COc1cc2/c(=N/c3ccc(Br)cc3F)nc[nH]c2cc1OCC1CCN(C)CC1 | -11%
COc1ccc(CC(=O)O)cc1O | -21%
O=C(Nc1ccc(Cl)cc1)Nc1ccc(Cl)c(Cl)c1 | -11%
Nc1nc2c(ncn2COC(CO)CO)c(=O)[nH]1 | -3%
Cc1cn([C@H]2C=C[C@@H](CO)O2)c(=O)[nH]c1=O | -8%
O=c1c(O[C@@H]2O[C@H](CO)[C@@H](O)[C@H](O)[C@H]2O)c(-c2ccc(O)c(O)c2)oc2cc(O[C@@H]3O[C@H](CO[C@@H]4O[C@H](CO)[C@@H](O)[C@H](O)[C@H]4O)[C@@H](O)[C@H](O)[C@H]3O)cc(O)c12 | -3%
N[C@@H](CCC[C@H](N)C(=O)O)C(=O)O | -16%
Nc1ccn(C[C@@H](CO)OCP(=O)(O)O)c(=O)n1 | -12%

Sample 4 — technique: competition with immobilised ligand; concentration: 1 µM
SMILES: O=C(N1CCS(=O)(=O)CC1)N1C[C@H](c2ccc(OC(F)(F)F)cc2)C[C@H](c2nc(C3CC3)no2)C1
target | assay | remaining binding [%]
cAMP-dependent protein kinase catalytic subunit PRKX (PRKX, Homo sapiens, UniProt P51817) | cell-free assay | 100
Cyclin-dependent kinase-like 3 (CDKL3, Homo sapiens, UniProt Q8IVW4) | binding | 93
Ephrin type-B receptor 2 (EPHB2, Homo sapiens, UniProt P29323) | cell-free assay | 100
Discoidin domain-containing receptor 2 (DDR2, Homo sapiens, UniProt Q16832) | cell-free assay | 100
Mast/stem cell growth factor receptor Kit (KIT, Homo sapiens, UniProt P10721, T670I/V559D) | cell-free assay | 100
STE20/SPS1-related proline-alanine-rich protein kinase (STK39, Homo sapiens, UniProt Q9UEW8) | cell-free assay | 100
Serine/threonine-protein kinase N2 (PKN2, Homo sapiens, UniProt Q16513) | cell-free assay | 100
Tyrosine-protein kinase HCK (HCK, Homo sapiens, UniProt P08631) | cell-free assay | 100

A few entries again (sample 2):
target | inhibition
Mitogen-activated protein kinase 12 (MAPK12, Homo sapiens, UniProt P53778) | 45%
Serine/threonine-protein kinase 17A (STK17A, Homo sapiens, UniProt Q9UEE5) | 73%
cGMP-dependent protein kinase 1 (PRKG1, Homo sapiens, UniProt Q13976) | 63%
Protein kinase C theta type (PRKCQ, Homo sapiens, UniProt Q04759) | 73%
